{"data": "Results of several laboratories", "note": "A part holds a random share of what one study measured. Positions count from the first letter of the parent shown."}
{"data": "Block 1", "target": "OGT, full length, His-tagged (human)", "method": "phage display, sequencing", "sample": "in vitro", "tested at": "1 µg OGT", "setting": "single substitutions, 15-mer displayed peptide, unchanged parent 16.7", "relative to": "input library", "reading": "higher = stronger binding", "parent": "peptide; NSEYMPQYQIIFAHQ"}
{"Substitution": "NSEYMPNYQIIFAHQ [Q7N]", "fold enrichment [fold]": 2.42}
{"Substitution": "NSEYMPFYQIIFAHQ [Q7F]", "fold enrichment [fold]": 16.1}
{"Substitution": "HSEYMPQYQIIFAHQ [N1H]", "fold enrichment [fold]": 13.9}
{"Substitution": "NSEHMPQYQIIFAHQ [Y4H]", "fold enrichment [fold]": 2.32}
{"Substitution": "NSEYSPQYQIIFAHQ [M5S]", "fold enrichment [fold]": 7.96}
{"Substitution": "NGEYMPQYQIIFAHQ [S2G]", "fold enrichment [fold]": 18.5}
{"Substitution": "NSEYMPQYQHIFAHQ [I10H]", "fold enrichment [fold]": 0.526}
{"Substitution": "NSEYMPQYQIIFAHT [Q15T]", "fold enrichment [fold]": 17.4}
{"data": "Block 2", "target": "CCNB2, cyclin fold, Cln2 fusion (human)", "method": "yeast growth competition, sequencing", "sample": "yeast", "setting": "weak parent motif", "relative to": "not given", "reading": "higher = stronger binding", "parent": "GMNC docking peptide (human); KNAKRNLSSEFAN; partner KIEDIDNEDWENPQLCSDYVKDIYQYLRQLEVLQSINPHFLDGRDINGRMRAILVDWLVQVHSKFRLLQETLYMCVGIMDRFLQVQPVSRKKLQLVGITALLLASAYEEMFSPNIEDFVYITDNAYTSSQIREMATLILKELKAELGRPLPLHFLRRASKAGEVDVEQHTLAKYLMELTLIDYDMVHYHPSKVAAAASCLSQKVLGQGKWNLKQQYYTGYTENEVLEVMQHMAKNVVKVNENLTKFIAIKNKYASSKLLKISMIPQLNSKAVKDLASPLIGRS"}
{"Substitution": "L7I", "normalised enrichment score": 0.0813}
{"Substitution": "E10Q", "normalised enrichment score": 0.575}
{"Substitution": "S9V", "normalised enrichment score": 0.812}
{"Substitution": "A12D", "normalised enrichment score": 0.349}
{"Substitution": "N6I", "normalised enrichment score": 0.241}
{"Substitution": "N2H", "normalised enrichment score": 0.532}
{"Substitution": "F11T", "normalised enrichment score": 0.348}
{"Substitution": "S8R", "normalised enrichment score": 0.454}
{"data": "Further values, each from its own experiment", "P1": "PafA, mature enzyme, eGFP fusion (Elizabethkingia meningoseptica, UniProt Q9KJX5); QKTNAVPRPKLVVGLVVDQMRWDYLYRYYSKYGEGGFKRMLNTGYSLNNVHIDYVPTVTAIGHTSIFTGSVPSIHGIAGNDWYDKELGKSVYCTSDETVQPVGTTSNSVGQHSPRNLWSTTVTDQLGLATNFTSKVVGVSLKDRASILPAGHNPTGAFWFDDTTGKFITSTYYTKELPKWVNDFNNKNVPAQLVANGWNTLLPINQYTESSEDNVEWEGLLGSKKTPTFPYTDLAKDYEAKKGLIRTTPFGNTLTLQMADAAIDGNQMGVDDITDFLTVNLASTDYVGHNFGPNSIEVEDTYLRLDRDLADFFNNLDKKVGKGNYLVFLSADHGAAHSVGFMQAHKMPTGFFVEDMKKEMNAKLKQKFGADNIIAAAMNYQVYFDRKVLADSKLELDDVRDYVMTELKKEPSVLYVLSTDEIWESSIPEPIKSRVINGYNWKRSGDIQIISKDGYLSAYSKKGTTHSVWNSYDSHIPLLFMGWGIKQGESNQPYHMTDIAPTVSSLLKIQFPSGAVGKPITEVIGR"}
{"Substance": "CYC1 (Homo sapiens, UniProt P08574)", "tested on": "UQCRC1 (Homo sapiens, UniProt P31930)", "assay": "cross-linking MS", "setting": "hits only", "endpoint": "interaction screen", "value": "cross-linked"}
{"Substance": "P1 G165A", "tested on": "vanadate, free oxyanion", "assay": "microfluidic competitive inhibition", "test system": "in vitro, cell-free expressed", "setting": "not given, derived from inhibition constants, unchanged parent 676 nM", "scale": "lower = stronger binding", "endpoint": "oxyanion analog dissociation constant", "value": "602 nM"}
{"Substance": "SYNCRIP (Homo sapiens, UniProt O60506)", "tested on": "HNRNPC (Homo sapiens, UniProt P07910)", "assay": "cross-linking MS", "test system": "cell fractions", "setting": "with: DSSO", "endpoint": "cross-linked residues", "value": "K356 to K176"}
{"Substance": "UFL1 (Homo sapiens, UniProt O94874)", "tested on": "CDK5RAP3 (Homo sapiens, UniProt Q96JB5)", "assay": "cross-linking MS", "setting": "hits only", "endpoint": "interaction screen", "value": "cross-linked"}
{"note": "Repeated from above (block 1):"}
{"Substitution": "NGEYMPQYQIIFAHQ [S2G]", "fold enrichment [fold]": 18.5}
{"Substitution": "NSEYMPQYQHIFAHQ [I10H]", "fold enrichment [fold]": 0.526}
{"Substitution": "NSEYMPQYQIIFAHT [Q15T]", "fold enrichment [fold]": 17.4}
